Published values collected from several papers.
Numbered parts are unrelated; each lists some results of a single study. “And” joins repeats or separate records; there may be more than shown.

Set 1
SMILES: CC(=O)N[C@@H](Cc1c[nH]c2ccccc12)C(=O)N[C@@H](CCC(=O)C=[N+]=[N-])C(=O)OC(C)C
The body weight was 100% and 105% and 97% and 90.9% and 96.6% (C57BL/6 CES1-/- mouse, both sexes; 1 mg/kg, day 10).
The body weight was 100% (C57BL/6 CES1-/- mouse, EL4 tumour; intravenous, 1 mg/kg DON equivalent, treatment day 7, 5 days per week; reference: baseline).
It gave 90% and 100% and 110% and 89% and 96% and 92% for body weight (C57BL/6 CES1-/- mouse, EL4 tumour; intravenous, 1 mg/kg DON equivalent, treatment day 18, 5 days per week; reference: baseline).
C57BL/6 CES1-/- mouse, both sexes; 1 mg/kg, day 18 — body weight: 84.8% and 86.2% and 104% and 87.9% and 105% and 100%.
The body weight was 91% and 88% and 93% and 100% and 90% and 105% (C57BL/6 CES1-/- mouse, EL4 tumour; intravenous, 1 mg/kg DON equivalent, treatment day 11, 5 days per week; reference: baseline).

Set 2
Target: Diamine acetyltransferase 1 (Homo sapiens, UniProt P21673)
Mode: inhibitor
Tested at: 10 µM
Reference: control
Residues (P21673 1-171): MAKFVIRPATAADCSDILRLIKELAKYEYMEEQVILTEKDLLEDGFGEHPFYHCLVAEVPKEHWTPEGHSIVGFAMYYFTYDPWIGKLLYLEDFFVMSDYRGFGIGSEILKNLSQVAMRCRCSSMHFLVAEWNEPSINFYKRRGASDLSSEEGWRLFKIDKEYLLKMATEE
`O=c1cc(O)c2ccccc2o1` has a remaining activity of 103%.
`CNC(=O)Oc1ccccc1OC(C)C` gave a remaining activity of 104%.
For `NCCc1ccc(O)cc1`, the remaining activity was 102%.
With `C/C=C/C#CC#C/C=C/c1ccco1` the remaining activity was 100%.

Set 3
Compound: CCCCCCCCCCCCCCCCOP(=O)([O-])OCC[N+](C)(C)C
Organism: Leishmania donovani
Strain: DD8 resistant line
THP-1 intracellular amastigotes; 40 µM, resistance confirmation — inhibition: 100%.
promastigotes; 16.66 µM, after drug pressure removed — inhibition: 2% and 1%.
THP-1 intracellular amastigotes; 20 µM, resistance confirmation — inhibition: 91% and 92%.

Single results of other studies
`CC(C)n1cnc(-c2ccc(F)cc2)c1-c1ncc(C(=O)Nc2ccc(N3CCN(C)CC3)cc2)[nH]1`: “patients with TEAEs” 1% (phase 2a clinical trial, measured: influenza-like illness; idiopathic pulmonary fibrosis patients; dose not given, grade 2, all drug arms; reference: patients).

A few entries again (set 1):
It gave 90% and 100% and 110% and 89% and 96% and 92% for body weight (C57BL/6 CES1-/- mouse, EL4 tumour; intravenous, 1 mg/kg DON equivalent, treatment day 18, 5 days per week; reference: baseline).
